Assay results collected from several papers.
A part holds a random share of what one study measured. Substitutions count along the parent as printed.

Series 1
Target: RNA binding protein fox-1 homolog 2, RRM domain, GST-SBP tag (RBFOX2, Homo sapiens, UniProt O43251-10, residues 100-194)
Technique: RNA Bind-n-Seq
Molecule type: RNA
Matrix: in vitro
Tested at: 365 nM
Notes: natural RNA segment, single round, ends assumed
Baseline: no-protein control
Direction: higher = stronger binding
Constant ends, left off below: GGGAGUUCUACAGUCCGACGAUC … UGGAAUUCUCGGGUGCCAA
Construct (chain): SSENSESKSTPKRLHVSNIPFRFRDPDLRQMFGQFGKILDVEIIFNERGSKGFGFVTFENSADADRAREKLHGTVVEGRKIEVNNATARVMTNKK
Sequence | RBNS enrichment (R)
CCAGCCAGUGUGGGUCUGAACAUCCCCGCCCACCCCCAGACUGCAUUCUCAUCAGGGUUUCUUGUGCCCUUCUGCUGUGGCAGUGACAACUGUGCCUAGCCGGGGCUGCC | 1.02
UGGUUUCUGGAGACAAAUAAUUUGUUUUCAUUAUCAUUGUAUAAUCAGGUUAAUGAUUUAUUUUUUGACUAAAUGUGCAAUUUCUUAUCACUAGAUAACUUUCAGUAUCA | 0.373
UUUUGGCAACUUGUAAAUAAUGUGUAUACCAAGUUUUUAUGAUUAAGGAAUCAAAUUUAUUGAAUUUUAUUAUUGAAAGUUGAAAUAAGAUGUAUGAACAAAAAAAAAUC | 0.844
GUUUUCAUAAUCGAAAGAAACGGGUAUCCAAAUAAAACCAAGUUCUUGACAUUGGUCUGUUUUGCUGUGAAUAUUGGAAAUGCUUAGGAUCUUCAGACCCAAUAGCUCUA | 0.281
GCAAAGGAUAAUGUCACCUCAGGACCAAGGUGGAAACUUACAGCUGAAUCCAGGGCUUACUAAGUAGGGAAGUCAGUUUACAUAUUUCAGUUUUCCUCUGAUGUUUUUGA | 0.456
UCUGGAUCUAGAAGGGACCAUAAGAGGAGUAGGCCCUGGUUCCUGCUGUCCUGGUGGCUGGGCCCAGCAGGGGCCCUCACUCUUGAAGUCCAGGACUGGGUCUGACCUGG | 0.279
UGGACACCCAUCUCAACAGGGUCACUUGGUAAUUAACAAUAGCCAUAUAAAUGCGGAUACAGGUUACUACCCUCACCCUUUACCUUCCUCAGGUAACAGUCGUAGAUACC | 0.334
UCCACAACUACUGCCAUACCCUGUGUUGUAUCAUUUGACCAGGAGGGAAACCUUGAAUUGGGGUGUGUUCUCUAAUCACUUUCCACUGUCUGAGCUUUCCUGACCCCUGU | 0.358

Series 2
Target: Transcriptional repressor CTCF (CTCF, Homo sapiens, UniProt P49711, residues 1-727, full length assumed)
Sequence of UniProt P49711 (whole entry, looked up): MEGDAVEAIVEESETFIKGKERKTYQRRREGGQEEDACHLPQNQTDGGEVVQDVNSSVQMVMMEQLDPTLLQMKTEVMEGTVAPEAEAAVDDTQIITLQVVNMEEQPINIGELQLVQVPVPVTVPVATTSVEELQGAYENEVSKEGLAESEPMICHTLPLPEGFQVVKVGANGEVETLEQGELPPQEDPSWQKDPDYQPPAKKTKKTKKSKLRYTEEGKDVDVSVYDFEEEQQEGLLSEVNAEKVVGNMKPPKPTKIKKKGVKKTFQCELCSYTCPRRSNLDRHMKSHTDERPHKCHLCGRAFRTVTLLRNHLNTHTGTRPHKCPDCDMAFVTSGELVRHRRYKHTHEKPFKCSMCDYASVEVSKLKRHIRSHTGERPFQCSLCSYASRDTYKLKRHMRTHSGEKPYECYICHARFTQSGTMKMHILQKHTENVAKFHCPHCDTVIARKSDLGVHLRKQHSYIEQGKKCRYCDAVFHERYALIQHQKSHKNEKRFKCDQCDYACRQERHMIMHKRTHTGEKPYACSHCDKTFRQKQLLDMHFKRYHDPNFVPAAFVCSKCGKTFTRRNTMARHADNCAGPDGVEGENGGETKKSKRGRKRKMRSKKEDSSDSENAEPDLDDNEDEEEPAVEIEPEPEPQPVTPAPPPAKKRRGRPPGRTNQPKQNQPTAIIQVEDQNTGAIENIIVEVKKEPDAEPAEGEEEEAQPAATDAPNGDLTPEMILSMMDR
Technique: protein-binding microarray
Molecule type: double-stranded DNA, one strand shown
Matrix: in vitro
Tested at: not given
Notes: k-mer, scored over probes, only values ≥0.25
Direction: higher = stronger binding
Sequence | E-score
ATATAGTA | 0.34
TATGTTAA | 0.284
ACAATAAC | 0.257
ATATTATG | 0.333
GCGCGCGC | 0.421
TGCAATAA | 0.288
GCTTATAA | 0.262
AAATATTA | 0.321

Series 3
Target: Histone acetyltransferase KAT6A, winged helix 2, GST fusion (KAT6A, Homo sapiens, UniProt Q92794, residues 85-181)
Technique: protein binding microarray
Molecule type: double-stranded DNA, one strand shown
Matrix: in vitro
Tested at: not given
Notes: 8-mer, flanks averaged, mean of 2 arrays, mostly near background
Baseline: not given
Direction: higher = stronger binding
Residues (chain): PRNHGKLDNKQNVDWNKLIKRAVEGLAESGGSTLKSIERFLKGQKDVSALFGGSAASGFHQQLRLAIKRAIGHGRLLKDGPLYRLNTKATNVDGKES
Sequence | E-score
AACGCTAA | -0.00515
CCCCCAGG | 0.00118
CCGATTTC | -0.0586
ATGATACA | -0.0533
CCGAGGAA | 0.136
AGCCGAAA | 0.08
GGCAGACC | 0.00974
CATGCTTA | -0.0208

Other studies, line by line
Starting sequence: viral docking peptide; TSVRRALFTGGSD
Change | target | test | system | conditions | how to read | quantity | result
TSPRRALFTGGSD [V3P] | CCNE2, cyclin fold, Cln2 fusion (human) | yeast growth competition, sequencing | yeast | strong parent motif | baseline: not given, higher = stronger binding | normalised enrichment score | 0.625

For quick reference, copied from above (series 2):
Sequence | E-score
ATATAGTA | 0.34
ATATTATG | 0.333
ACAATAAC | 0.257
